Assay results from different studies.
Lines come from different studies, so protocols differ. Values joined by “and” are separate records of one study, mostly repeats; a detail may differ. ± gives the spread as reported.
RORC: Nuclear receptor ROR-gamma (RORC, Homo sapiens, UniProt P51449)
Genome polyprotein NS3 helicase domain: Genome polyprotein, NS3 helicase domain (Hepatitis C virus genotype 1b, UniProt Q9WMX2)
WD repeat-containing protein 91 WD40 domain, residues 392–747: WD repeat-containing protein 91, WD40 domain, residues 392–747 (Homo sapiens, UniProt A4D1P6)
WD repeat-containing protein 91: WD repeat-containing protein 91 (Homo sapiens, UniProt A4D1P6)
T1: riboswitch RNA yjdF aptamer (Bacillus subtilis); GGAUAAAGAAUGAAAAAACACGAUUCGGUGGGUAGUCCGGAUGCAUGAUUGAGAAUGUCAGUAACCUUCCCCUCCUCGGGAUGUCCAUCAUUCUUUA

| Structure (SMILES) | target | assay | system | conditions | how to read | endpoint | result |
| --- | --- | --- | --- | --- | --- | --- | --- |
| CCCCCCCC/C=C\CCCCCCCC(=O)NCCc1ccc(O)c(O)c1 | Trpv1 (Mus musculus, UniProt Q704Y3, Y555F) | ion current, agonist, whole-cell patch clamp |  | Y555F |  | Hill coefficient | 1.56 ± 0.59 |
| CCN(CC)C(=S)S | PTPN12 (Homo sapiens, UniProt Q05209) | enzyme activity |  | concentration not given, with: DiFMUP |  | activity | inactive |
| [O-][S+]1CCCCS1 (centres unmarked) | SOD1 (Homo sapiens, UniProt P00441, G94A) | item: SOD1 dimer | SOD1 G93A transgenic mice, brain | iv, 10 mg/kg once daily |  | target engagement | 64% |
| C=CC(=O)N1CCC(COCC(=O)N2CCN(c3nc(-c4cnc(N)nc4C(F)F)nc(N4CCOC[C@@H]4C)n3)CC2)CC1 | NEK7 (Homo sapiens, UniProt Q8TDX7) | KINOMEscan |  | 1 µM |  | remaining binding | 89% |
| CC[C@H](C)[C@H](NC(=O)[C@H](CCCCN)NC(=O)CNC(=O)[C@@H](NC(=O)[C@@H](NC(=O)[C@H](CCSC)NC(=O)[C@H](Cc1c[nH]cn1)NC(=O)CN)[C@@H](C)O)C(C)C)C(=O)N[C@@H](Cc1ccc(O)cc1)C(=O)N[C@@H](C)C(=O)N[C@@H](C)C(=O)N[C@@H](C)C(=O)N[C@@H](CCSC)C(=O)N[C@H](C(=O)N[C@@H](CCSC)C(=O)N[C@@H](CCC(=O)O)C(=O)N[C@@H](Cc1ccc(O)cc1)C(=O)N[C@@H](Cc1ccc(O)cc1)C(=O)N[C@@H](CCCNC(=N)N)C(=O)N[C@@H](CCC(N)=O)C(=O)N[C@@H](CO)C(=O)N[C@@H](CCCCN)C(=O)N[C@@H](C)C(=O)N[C@@H](CCCCN)C(=O)N[C@@H](CCCCN)C(=O)N[C@@H](CC(C)C)C(=O)N[C@@H](CCC(N)=O)C(=O)N[C@@H](C)C(=O)N[C@@H](CCSC)C(=O)N[C@@H](CCCNC(=N)N)C(=O)O)[C@@H](C)CC | Calmodulin-1, Ca2+-bound N-lobe (CALM1, Homo sapiens, UniProt P0DP23) | binding, isothermal titration calorimetry |  | pH 7.4, 15 °C, N-lobe, CaV2.1 IQ domain, with: Ca2+ |  | stoichiometry | 0.95 ± 0.02 |
| COC(=O)c1cn(C)c2ccc(-c3cccnc3)cc12 | RORC | reporter gene, Gal4 hybrid reporter |  | 10 µM | baseline: vehicle | activation | 0.76 fold |
| Cn1c(=O)c2[nH]c(-c3ccc(S(=O)(=O)O)cc3)nc2n(C)c1=O | Genome polyprotein NS3 helicase domain | DNA binding, inhibitor | hepatitis C virus | 100 µM, with: Cy5-dT15 DNA |  | inhibition | 0% |
| CC[C@@H]1[C@H](F)C(=O)N[C@@H]1COc1nccc2cc(C(N)=O)c(OC)cc12 | EIF2AK4 (Homo sapiens, UniProt Q9P2K8) | ATP-site probe binding, ActivX profiling, item: GCN2 | THP-1 cell lysate | 0.01 mM, Lys2 site |  | inhibition | 2% |
| CN/C(=N/CCSCc1nc[nH]c1C)NC#N | Genome polyprotein NS3 helicase domain |  |  | 100 µM |  | inhibition | 0% |
| COC1=C(OC)C(=O)C(CC=C(C)C)=C(C)C1=O | ancestral FSP1 | oxidoreductase activity, substrate |  | with: co-substrate 100 µM fixed |  | kcat | 9.81 ± 0.33 s⁻¹ |
| COc1ccc(-c2cc(=O)c3c(O)cc(O)cc3o2)cc1 | Estrogen receptor (ESR1, Homo sapiens, UniProt P03372) | array formation | PRL-HeLa |  | baseline: EC50 ERβ over EC50 ERα | selectivity ratio | 5.9 |
| COc1ccc(F)cc1C(=O)NCc1ccc(-c2nn([C@@H](C)C(F)(F)F)c(N)c2C(N)=O)cc1 | ITK (Homo sapiens, UniProt Q08881) | kinase activity, inhibitor, HotSpot radiometric |  | 1000 nM, with: ATP at Km |  | remaining activity | 103 ± 8.3% |
| NC(=O)[C@@H]1CN(C(=O)c2cc3cccn3cn2)C[C@H]1c1ccccc1 | WD repeat-containing protein 91 WD40 domain, residues 392–747 | binding, SPR single-concentration screen |  | 45 µM |  | SPR response | -6.7 RU and -2.1 RU |
| OCc1cc(C(O)CNCCCCCCOCCCCc2ccccc2)ccc1O (centres unmarked) | Genome polyprotein NS3 helicase domain | DNA binding, inhibitor | hepatitis C virus | 100 µM, with: Cy5-dT15 DNA |  | inhibition | 2% |
| Nc1nc2c(ncn2[C@@H]2O[C@H](COP(=O)(O)O)[C@@H](O)[C@H]2O)c(=O)[nH]1 | GUK1 (Homo sapiens, UniProt Q16774, T83A) | enzyme activity, NADH-coupled |  | 62.5 µM |  | reaction rate | 14.4 s⁻¹ and 10.8 s⁻¹ and 11 s⁻¹ |
| O=C(NC1CCCS(=O)(=O)c2ccccc21)c1ccc2nc(O)cnc2c1 (centres unmarked) | WD repeat-containing protein 91 | binding, SPR steady state |  | 1.875 µM |  | SPR response | 13.6 RU |
| Oc1cc2c(cc1O)CN(C(=S)NCCc1ccc(Cl)cc1)CCC2 | Genome polyprotein NS3 helicase domain | DNA binding, inhibitor | hepatitis C virus | 100 µM, with: Cy5-dT15 DNA |  | inhibition | 0% |
| O=S(=O)(c1cccc(-c2ccccc2)c1)N1CCc2ccc(OCc3c(F)cccc3Cl)cc21 | RORC | reporter gene, agonist, GAL4 luciferase reporter |  | with: ursolic acid 2 µM | baseline: DMSO | maximum fold change | 7.8 ± 2.1 |
| COc1ccccc1N(C)S(=O)(=O)c1ccc(C(=O)N2CCC(C#N)CC2)cc1 | WD repeat-containing protein 91 WD40 domain, residues 392–747 | SPR |  | 45 µM |  | binding | -2% and -3% |
| COc1cc(Nc2ncc3c(n2)-c2ccc(Cl)cc2C(c2c(F)cccc2OC)=NC3)ccc1C(=O)O | PAK3 | kinase activity |  | 1 µM |  | remaining activity | 98% |
| Nc1ccc(C(=O)O)cc1 | BEST1, with wild-type BEST1 (Homo sapiens, UniProt O76090, D302A) | ion current, whole-cell patch clamp | HEK293 co-expressing mutant and wild-type | concentration not given, voltage -100 mV |  | current density | -7.71 pA/pF and -16.3 pA/pF and -18 pA/pF and -14.4 pA/pF and -7.93 pA/pF and -27.9 pA/pF |
| NC(=O)c1cccc(N)c1 | Genome polyprotein NS3 helicase domain | DNA binding, inhibitor | hepatitis C virus | 100 µM, with: Cy5-dT15 DNA |  | inhibition | 0% |
| CCn1c(=O)[nH]c2cc(C(=O)NC(c3ccc(F)cc3)c3cnn(C)c3)ccc2c1=O (centres unmarked) | WD repeat-containing protein 91 | binding, SPR steady state |  | 15 µM |  | SPR response | 27.9 RU |
| Cc1cc2nc3[nH]c(=O)[nH]c(=O)c3nc2cc1C | T1, riboswitch RNA yjdF aptamer (Bacillus subtilis) | fluorescence titration |  | with: 380 nM lumichrome |  | Kd | 9 µM |
| O=C(O)c1ccccc1Nc1ccccc1 | Genome polyprotein NS3 helicase domain | DNA binding, inhibitor | hepatitis C virus | 100 µM, with: Cy5-dT15 DNA |  | inhibition | 0% |
| COc1cc(/C=C/C(=O)C(=Cc2ccccc2)C(=O)/C=C/c2ccc(O)c(OC)c2)ccc1O | haemin | isothermal titration calorimetry |  | concentration not given, pH 7.4, 37 °C |  | binding stoichiometry | 1.27 ± 0.08 |
| Nc1c(Br)cc(Br)cc1CN[C@H]1CC[C@H](O)CC1 | Voltage-gated potassium channel, KQT; KCNQ2(Kv7.2)/KCNQ3(Kv7.3) (KCNQ3/KCNQ2, Homo sapiens, UniProt O43525+O43526) | ion current, antagonist, SyncroPatch patch clamp | HEK293 | 30 µM |  | inhibition | 23% |
| COc1cc(F)ccc1-c1ncnc(Nc2cccc(C[S@](C)(=N)=O)c2)n1 | TSSK2 (Homo sapiens, UniProt Q96PF2) | kinase activity |  | 10 µM, with: 10 µM ATP |  | remaining activity | 92% |
| O=C(N[C@@H]1CCc2cc(Cl)ccc21)c1cccc(-c2cnco2)c1 | WD repeat-containing protein 91 WD40 domain, residues 392–747 | binding, SPR single-concentration screen |  | 45 µM |  | SPR response | -8.8 RU and -0.8 RU |

Some of these lines once more:
| Structure (SMILES) | target | assay | system | conditions | how to read | endpoint | result |
| --- | --- | --- | --- | --- | --- | --- | --- |
| [O-][S+]1CCCCS1 (centres unmarked) | SOD1 (Homo sapiens, UniProt P00441, G94A) | item: SOD1 dimer | SOD1 G93A transgenic mice, brain | iv, 10 mg/kg once daily |  | target engagement | 64% |
| CN/C(=N/CCSCc1nc[nH]c1C)NC#N | Genome polyprotein NS3 helicase domain |  |  | 100 µM |  | inhibition | 0% |
| COc1cc(/C=C/C(=O)C(=Cc2ccccc2)C(=O)/C=C/c2ccc(O)c(OC)c2)ccc1O | haemin | isothermal titration calorimetry |  | concentration not given, pH 7.4, 37 °C |  | binding stoichiometry | 1.27 ± 0.08 |
| NC(=O)[C@@H]1CN(C(=O)c2cc3cccn3cn2)C[C@H]1c1ccccc1 | WD repeat-containing protein 91 WD40 domain, residues 392–747 | binding, SPR single-concentration screen |  | 45 µM |  | SPR response | -6.7 RU and -2.1 RU |
